Assay results from different studies.
Numbered parts are unrelated; each lists some results of a single study. Substitutions count along the parent as printed.

Study 1
Target: RNA binding protein fox-1 homolog 2, RRM domain, GST-SBP tag (RBFOX2, Homo sapiens, UniProt O43251-10, residues 100-194)
Technique: RNA Bind-n-Seq
Molecule type: RNA
Sample: in vitro
Tested at: 365 nM
Setting: natural RNA segment, single round, ends assumed
Baseline: no-protein control
Direction: higher = stronger binding
Quantity: RBNS enrichment (R)
All sequences stand within: GGGAGUUCUACAGUCCGACGAUC … UGGAAUUCUCGGGUGCCAA
Construct (chain): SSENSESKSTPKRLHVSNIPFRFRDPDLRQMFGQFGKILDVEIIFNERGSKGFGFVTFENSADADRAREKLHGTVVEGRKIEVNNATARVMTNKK
AGGAGGGGCCCGUUGUCUCCCUGGCCCUCAAGGCCUCCCACAGUGACUCGGGCUCCUGUGCCCUUAUUCAGGAAAAGCCUCUGUGUCACUGGCUGCCUCCACUCCCACUU: 0.251
GCUGCUGGUGAGGUUUGGAAGCAUCAGGCUCACGGGUGUUCAUGUGUGUUCGUGCGUGUGUGUGCGUACGUGUAUAUAACUGAAGUGUCUGUACGGAAUGCCCUUUGCUA: 0.675
AAACCCAGCACAUAAGUAUCUGCGUGGUCUAGCCUUUCAUCUCCGUAACAAGCCAGGGGACUCUUGGCCAAAAGAAAGAAAGGGAAGUUGCACUAGGGCUUGUCCGUCCA: 0.392
GCAGCCAGUGGGUGGUUGUUUCUCAAUCUCUGUAGCAUGACUUUUUAAUCCCCAGGUGUGUUAGUCCCAGCCUAGUUUGGUGCUCGAGGUGAGAGGGGAUUUGAAUCUGU: 0.897
UUCCCCUCACUCCUCCCCUCCUUCGCUCGCUCAACCUCUUUUGUUCAGUAUGUGUAACUUGAAGCUAAUUUGUACUACUGGAUAUCUGACUGGAGCCACAGAUACAGAAU: 0.591
AGCUGCCACAGUAAGCAGGUCAUUGUAUAGGUAAAUGCCUGCACCCAUAAUUUUCUAGUAAUAGCCACGACCAAUUUAUUAACAGUCAGGGCCUAUCCUUGCCUGUAGUU: 0.508
AGAAAAAAACAAAAAACACGUUUGAUACUUUGUACAUCAUAUGCAUCUUAUUUAAAGGGAUACUUUUGUAAAAGUGAAACCUUGUAUAAAGAAAGAGCAGCCUUUGUUAA: 2.04
CUGUCAUUUGCCUCCGCAACAAAGCGAGUGUAAGUGUCUAAUGCUGAAGCUAGAGUGAACUCAUGUGCCAGCAGAGGCCUCCUCUCUUUAUAGCAAUUCUGACAAUAGGU: 0.259

Study 2
Target: RING finger protein unkempt homolog, zinc fingers 1-6, GST-SBP tag (UNK, Homo sapiens, UniProt Q9C0B0, residues 30-357)
Technique: RNA Bind-n-Seq
Molecule type: RNA
Sample: in vitro
Tested at: not given
Setting: RNA with constant flanks, human and mouse sites, ends assumed
Baseline: input RNA pool
Direction: higher = stronger binding
Quantity: bound/input enrichment
All sequences stand within: GGGAGUUCUACAGUCCGACGAUC … CAACAGAGGAUUGAGCAUCA
Construct (chain): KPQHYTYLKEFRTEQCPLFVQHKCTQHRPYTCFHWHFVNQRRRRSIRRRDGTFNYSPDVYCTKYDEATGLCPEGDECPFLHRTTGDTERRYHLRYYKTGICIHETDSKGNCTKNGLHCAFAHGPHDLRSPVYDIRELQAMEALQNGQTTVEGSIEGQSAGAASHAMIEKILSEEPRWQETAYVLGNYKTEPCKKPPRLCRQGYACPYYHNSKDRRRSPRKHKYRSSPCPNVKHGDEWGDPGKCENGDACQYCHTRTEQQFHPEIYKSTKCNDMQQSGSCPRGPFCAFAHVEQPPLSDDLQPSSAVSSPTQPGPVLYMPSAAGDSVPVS
AUCAGAAGAGUGAAAUCUCAUAAGGAAUUUUUGAAUAAAACAACACACCAGCUUUUGUUUGUUAGACAUCAGUUUAAAAUAGCUUUCUUCAGUGAGUUGAAACAAGAUACACAAAACGCC: 0.848 ratio
GUCUGCAGUGAGUUCUGUCACUGCUGGAGAAAAGUGUGUUUUGACUUCUCAGAGAACGUCACUAGGGUCUGUCCAGCAGCACCCAAAGACUCAGUAGUGACAAGGCUGAGUUCUUGCAGG: 0.176 ratio
AGAGACUGAACAGUCCACAUCAUCAGCUCCUUAUACCUUCGCAGCCUCCCUCUCCAAACCUAGCAGGGCCCUGCUUCCCUCCCCACCUGACAUCCAGCCGUGGAUGAGGGGCCUGCUUAG: 0.35 ratio
CCCAAAACUAAUCUUCUGUACAAAGUUGUGUGCAUAUUGAGAUGAUUAGUUAAGGCAGUGUAGUUUUUUAAAUUUUUUCUGUAUAAAUUUCUUUCCUUCUUCCCCACCUCAGGCACCUAC: 22.3 ratio
ACGAACUUUCAGGCAACACCGUUAUUGAACGACCCAGACAGAUCUGUCCUUAUGUAAUUGUAGCUUUUCGAUACAGGGAAUCUAAAACUAUGGCACCACCAGCUCAUAAAAGCAUACUUG: 0.236 ratio
GAAGACCAAAUCGUGUCCAAGGCAGCGUACGUGCUCUUCUACCAGAGACAGGACACUUUCAGUGGGACUGGCUUCUUCCCUCUUGACCGAGAAACUAAAGGUGCUUCAGCUGCCACAGGU: 0.0541 ratio
AAACGCCGUUUCAGGAAGUUCCUGGUUUAUGUUGCCAACUUUGAUGAAAAAGAUCCUAGAACUUUCGAGGGUGUUGAUCCUAAGAAGACCUCCAUGAGAGAUGUGUAUAAGAAGUUUGAU: 0.176 ratio
AUCUUAUUACAGGGACUUGCUGUGCUUGCAAAGGAAAGACCACCAAAUCCCAUUGAAUUUCUAGCAUCUUAUCUUUUAAAAAACAAGGCACAGUUUGAAGAUCGAAACUGACUUAAUGGG: 2.65 ratio

Study 3
Target: Sal-like protein 4, full length isoform B (SALL4, Homo sapiens, UniProt Q9UJQ4-2, residues 1-616)
Technique: universal PBM
Molecule type: double-stranded DNA, one strand shown
Sample: in vitro
Tested at: not given
Setting: 8-mer, flanks averaged, mean of replicates
Direction: higher = stronger binding
Quantity: E-score
Construct (chain): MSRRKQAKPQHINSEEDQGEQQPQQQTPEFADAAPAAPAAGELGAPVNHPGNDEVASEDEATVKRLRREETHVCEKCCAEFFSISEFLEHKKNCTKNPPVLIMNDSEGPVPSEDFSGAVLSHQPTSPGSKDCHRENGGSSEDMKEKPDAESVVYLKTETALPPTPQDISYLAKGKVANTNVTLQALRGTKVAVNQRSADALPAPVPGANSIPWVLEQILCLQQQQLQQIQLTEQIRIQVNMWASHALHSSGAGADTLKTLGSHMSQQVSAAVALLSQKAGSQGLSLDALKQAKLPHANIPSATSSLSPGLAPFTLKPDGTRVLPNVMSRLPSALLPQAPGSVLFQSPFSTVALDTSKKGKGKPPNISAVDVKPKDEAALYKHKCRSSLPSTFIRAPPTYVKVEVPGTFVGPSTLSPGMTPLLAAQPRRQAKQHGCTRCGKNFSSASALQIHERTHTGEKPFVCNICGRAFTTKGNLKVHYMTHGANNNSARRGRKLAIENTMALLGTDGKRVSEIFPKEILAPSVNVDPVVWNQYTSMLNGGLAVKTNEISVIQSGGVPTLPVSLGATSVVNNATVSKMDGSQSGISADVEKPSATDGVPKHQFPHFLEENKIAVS
GCGTGGCA: -0.256
TAGTATCA: 0.244
GGTGGTAC: -0.185
CGTAAACA: 0.119
CACATCCA: 0.0396
GTGGGAAA: 0.0347
ATTCCCGG: -0.12
ATCCGCTG: -0.312
CCATAGCC: -0.121
ACTGACTA: 0.0104
CTGTGTTA: 0.0284
TTACAAAA: 0.241
CATTCTAC: 0.0578
CATGGGCG: -0.313
CAATTTGC: -0.0386
CGTGCACA: -0.00993
CGGCGCGC: -0.291
ATAGTCTG: 0.164
GAAATTGC: 0.103
AAGAGTGT: 0.0945
GCGGACGA: -0.302
CATACAAA: 0.252
CAATGAGC: -0.166

Study 4
Target: CCNF, cyclin fold, Cln2 fusion (human)
Technique: yeast growth competition, sequencing
Sample: yeast
Setting: strong parent motif
Baseline: not given
Direction: higher = stronger binding
Quantity: normalised enrichment score
Parent: RB1 docking peptide (human); PKPLKKLRFDIEG
EKPLKKLRFDIEG [P1E]: 0.73
PKPLKKLRMDIEG [F9M]: 0.724
PKPLKKLRFHIEG [D10H]: 1.52
PKPLKKLRFDIGG [E12G]: 1.62
PKVLKKLRFDIEG [P3V]: 1.56
PKLLKKLRFDIEG [P3L]: 1.82
PKPLKWLRFDIEG [K6W]: 1.62
PKPPKKLRFDIEG [L4P]: 1.31
PKPVKKLRFDIEG [L4V]: 3.83
PKPKKKLRFDIEG [L4K]: 4.12
PKPLKKLRFWIEG [D10W]: 2.59
PKPLEKLRFDIEG [K5E]: 0.247
PKPLNKLRFDIEG [K5N]: 1.14
PKPLKKLRTDIEG [F9T]: 0.334
PKPLKKLRFDING [E12N]: 1.63
PKPLKKLRKDIEG [F9K]: 1.3
NKPLKKLRFDIEG [P1N]: 0.166
WKPLKKLRFDIEG [P1W]: 2.02
PKPLKKLRFDTEG [I11T]: -0.215
PKPLKKLRYDIEG [F9Y]: -0.16
PKPLKKLRFDIEN [G13N]: 1.15
RKPLKKLRFDIEG [P1R]: 1.8
